Assay results of several laboratories.
Each line is one published result; not all experiments were run side by side. Numbers after ± are the reported error.
HLA-DRA/HLA-DRB3: HLA-DRA/HLA-DRB3 (Homo sapiens, UniProt P01903+P79483)
KLRK1 with MICA: NKG2-D type II integral membrane protein, with MICA (KLRK1, Homo sapiens, UniProt P26718)
Chain of UniProt P26718 (whole entry, looked up): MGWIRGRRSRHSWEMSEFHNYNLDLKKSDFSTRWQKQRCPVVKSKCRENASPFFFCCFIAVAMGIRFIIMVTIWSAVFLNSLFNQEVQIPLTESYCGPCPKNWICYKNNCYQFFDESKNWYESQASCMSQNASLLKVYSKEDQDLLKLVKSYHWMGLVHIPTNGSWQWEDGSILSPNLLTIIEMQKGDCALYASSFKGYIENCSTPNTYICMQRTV
CYP2C19: Cytochrome P450 2C19 (CYP2C19, Homo sapiens, UniProt P33261)
Metallo-beta-lactamase type 2: Metallo-beta-lactamase type 2 (Serratia marcescens, UniProt P52699)
Chain of UniProt P43219 (whole entry, looked up): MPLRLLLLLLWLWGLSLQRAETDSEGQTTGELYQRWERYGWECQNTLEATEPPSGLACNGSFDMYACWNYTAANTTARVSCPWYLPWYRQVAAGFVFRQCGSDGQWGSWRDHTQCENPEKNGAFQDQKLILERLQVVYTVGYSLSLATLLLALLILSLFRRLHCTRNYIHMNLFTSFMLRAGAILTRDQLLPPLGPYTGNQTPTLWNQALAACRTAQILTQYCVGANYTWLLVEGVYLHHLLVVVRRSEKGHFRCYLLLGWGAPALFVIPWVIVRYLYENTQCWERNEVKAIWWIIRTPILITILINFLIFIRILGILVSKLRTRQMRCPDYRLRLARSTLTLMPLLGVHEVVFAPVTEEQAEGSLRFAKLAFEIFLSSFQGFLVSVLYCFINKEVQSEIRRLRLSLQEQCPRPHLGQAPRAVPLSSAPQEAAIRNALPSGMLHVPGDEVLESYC
Chain of UniProt Q99873 (whole entry, looked up): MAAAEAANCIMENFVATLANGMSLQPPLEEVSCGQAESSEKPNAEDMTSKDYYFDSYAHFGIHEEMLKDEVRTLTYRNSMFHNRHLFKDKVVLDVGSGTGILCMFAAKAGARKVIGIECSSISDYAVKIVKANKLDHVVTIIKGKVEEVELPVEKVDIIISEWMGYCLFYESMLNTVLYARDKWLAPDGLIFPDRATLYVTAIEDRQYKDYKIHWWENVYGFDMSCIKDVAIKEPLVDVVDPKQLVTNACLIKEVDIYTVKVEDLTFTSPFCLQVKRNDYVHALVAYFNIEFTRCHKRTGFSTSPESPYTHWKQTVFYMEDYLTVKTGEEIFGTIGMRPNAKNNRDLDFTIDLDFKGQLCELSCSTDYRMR
Chain of UniProt P53350 (whole entry, looked up): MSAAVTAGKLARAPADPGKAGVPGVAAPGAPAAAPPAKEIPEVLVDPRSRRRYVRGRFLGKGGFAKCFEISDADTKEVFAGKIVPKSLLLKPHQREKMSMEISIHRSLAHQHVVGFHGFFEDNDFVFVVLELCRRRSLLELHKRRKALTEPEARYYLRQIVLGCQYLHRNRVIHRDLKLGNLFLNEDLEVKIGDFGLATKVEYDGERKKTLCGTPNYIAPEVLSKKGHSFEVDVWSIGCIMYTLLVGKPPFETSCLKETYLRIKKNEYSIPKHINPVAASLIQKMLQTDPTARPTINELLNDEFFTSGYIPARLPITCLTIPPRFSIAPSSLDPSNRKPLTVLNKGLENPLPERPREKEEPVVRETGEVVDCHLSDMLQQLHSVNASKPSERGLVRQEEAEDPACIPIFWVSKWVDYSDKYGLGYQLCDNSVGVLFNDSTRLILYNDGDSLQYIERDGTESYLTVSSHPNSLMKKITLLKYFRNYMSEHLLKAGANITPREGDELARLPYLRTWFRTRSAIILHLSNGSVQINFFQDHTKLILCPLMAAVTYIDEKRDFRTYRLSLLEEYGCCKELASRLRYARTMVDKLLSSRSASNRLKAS
Chain of UniProt P37136 (whole entry, looked up): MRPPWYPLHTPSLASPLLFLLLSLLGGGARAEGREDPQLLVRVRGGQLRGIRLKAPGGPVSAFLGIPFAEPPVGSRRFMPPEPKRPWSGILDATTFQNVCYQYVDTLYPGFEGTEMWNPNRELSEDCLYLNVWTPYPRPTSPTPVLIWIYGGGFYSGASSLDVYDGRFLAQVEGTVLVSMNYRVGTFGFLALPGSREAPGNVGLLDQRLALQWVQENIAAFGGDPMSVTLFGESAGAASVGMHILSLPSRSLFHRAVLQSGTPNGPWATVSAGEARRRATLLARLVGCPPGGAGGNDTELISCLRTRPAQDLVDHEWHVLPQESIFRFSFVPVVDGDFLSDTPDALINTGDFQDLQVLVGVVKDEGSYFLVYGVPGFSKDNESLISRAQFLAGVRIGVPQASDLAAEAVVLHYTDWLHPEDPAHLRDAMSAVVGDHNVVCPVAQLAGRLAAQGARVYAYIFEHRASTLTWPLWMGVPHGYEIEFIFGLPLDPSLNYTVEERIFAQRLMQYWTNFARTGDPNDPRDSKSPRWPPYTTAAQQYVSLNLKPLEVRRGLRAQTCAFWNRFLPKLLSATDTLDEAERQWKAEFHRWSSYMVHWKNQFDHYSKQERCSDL
Chain of UniProt Q7Z5W3 (whole entry, looked up): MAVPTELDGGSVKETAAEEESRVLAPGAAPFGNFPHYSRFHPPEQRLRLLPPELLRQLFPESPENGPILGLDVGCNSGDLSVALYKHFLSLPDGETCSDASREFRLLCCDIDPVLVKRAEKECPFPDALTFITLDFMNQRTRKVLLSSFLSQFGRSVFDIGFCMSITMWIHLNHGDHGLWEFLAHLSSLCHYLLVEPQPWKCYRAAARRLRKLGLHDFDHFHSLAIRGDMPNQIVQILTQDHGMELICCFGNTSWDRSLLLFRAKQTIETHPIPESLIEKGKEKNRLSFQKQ
Chain of UniProt P30101 (whole entry, looked up): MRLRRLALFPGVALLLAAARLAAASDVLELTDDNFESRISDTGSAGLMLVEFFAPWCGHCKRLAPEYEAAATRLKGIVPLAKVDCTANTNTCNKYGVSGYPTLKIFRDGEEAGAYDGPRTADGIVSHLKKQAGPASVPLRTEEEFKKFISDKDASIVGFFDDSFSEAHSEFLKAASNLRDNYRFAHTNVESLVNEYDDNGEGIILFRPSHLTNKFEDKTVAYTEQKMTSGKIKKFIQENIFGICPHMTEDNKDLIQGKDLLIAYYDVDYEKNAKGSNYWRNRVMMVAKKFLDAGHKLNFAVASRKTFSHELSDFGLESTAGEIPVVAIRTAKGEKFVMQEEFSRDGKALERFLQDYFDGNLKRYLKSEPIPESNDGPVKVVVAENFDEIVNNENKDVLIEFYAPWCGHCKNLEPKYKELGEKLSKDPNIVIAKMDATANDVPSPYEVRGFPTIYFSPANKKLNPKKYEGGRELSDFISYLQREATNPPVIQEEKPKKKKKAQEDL
Chain of UniProt P27487 (whole entry, looked up): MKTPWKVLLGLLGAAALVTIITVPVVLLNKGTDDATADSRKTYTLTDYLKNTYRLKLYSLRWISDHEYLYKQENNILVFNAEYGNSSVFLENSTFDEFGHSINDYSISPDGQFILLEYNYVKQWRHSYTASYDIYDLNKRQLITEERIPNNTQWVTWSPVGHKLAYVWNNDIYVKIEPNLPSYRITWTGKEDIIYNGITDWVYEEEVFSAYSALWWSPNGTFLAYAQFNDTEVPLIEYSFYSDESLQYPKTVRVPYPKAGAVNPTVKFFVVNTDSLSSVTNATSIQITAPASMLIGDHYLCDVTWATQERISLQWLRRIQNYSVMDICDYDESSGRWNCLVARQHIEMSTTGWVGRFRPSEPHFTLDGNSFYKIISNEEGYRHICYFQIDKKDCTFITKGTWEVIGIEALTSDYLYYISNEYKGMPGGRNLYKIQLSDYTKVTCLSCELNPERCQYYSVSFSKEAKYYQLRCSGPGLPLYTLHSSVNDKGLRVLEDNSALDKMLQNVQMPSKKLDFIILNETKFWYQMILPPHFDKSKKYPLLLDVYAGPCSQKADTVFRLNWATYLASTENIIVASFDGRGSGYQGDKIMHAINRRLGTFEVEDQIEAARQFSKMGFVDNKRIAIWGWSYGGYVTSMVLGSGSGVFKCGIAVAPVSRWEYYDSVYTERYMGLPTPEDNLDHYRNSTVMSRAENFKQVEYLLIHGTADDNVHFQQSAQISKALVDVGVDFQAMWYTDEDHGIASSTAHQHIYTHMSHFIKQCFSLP
Chain of UniProt P17301 (whole entry, looked up): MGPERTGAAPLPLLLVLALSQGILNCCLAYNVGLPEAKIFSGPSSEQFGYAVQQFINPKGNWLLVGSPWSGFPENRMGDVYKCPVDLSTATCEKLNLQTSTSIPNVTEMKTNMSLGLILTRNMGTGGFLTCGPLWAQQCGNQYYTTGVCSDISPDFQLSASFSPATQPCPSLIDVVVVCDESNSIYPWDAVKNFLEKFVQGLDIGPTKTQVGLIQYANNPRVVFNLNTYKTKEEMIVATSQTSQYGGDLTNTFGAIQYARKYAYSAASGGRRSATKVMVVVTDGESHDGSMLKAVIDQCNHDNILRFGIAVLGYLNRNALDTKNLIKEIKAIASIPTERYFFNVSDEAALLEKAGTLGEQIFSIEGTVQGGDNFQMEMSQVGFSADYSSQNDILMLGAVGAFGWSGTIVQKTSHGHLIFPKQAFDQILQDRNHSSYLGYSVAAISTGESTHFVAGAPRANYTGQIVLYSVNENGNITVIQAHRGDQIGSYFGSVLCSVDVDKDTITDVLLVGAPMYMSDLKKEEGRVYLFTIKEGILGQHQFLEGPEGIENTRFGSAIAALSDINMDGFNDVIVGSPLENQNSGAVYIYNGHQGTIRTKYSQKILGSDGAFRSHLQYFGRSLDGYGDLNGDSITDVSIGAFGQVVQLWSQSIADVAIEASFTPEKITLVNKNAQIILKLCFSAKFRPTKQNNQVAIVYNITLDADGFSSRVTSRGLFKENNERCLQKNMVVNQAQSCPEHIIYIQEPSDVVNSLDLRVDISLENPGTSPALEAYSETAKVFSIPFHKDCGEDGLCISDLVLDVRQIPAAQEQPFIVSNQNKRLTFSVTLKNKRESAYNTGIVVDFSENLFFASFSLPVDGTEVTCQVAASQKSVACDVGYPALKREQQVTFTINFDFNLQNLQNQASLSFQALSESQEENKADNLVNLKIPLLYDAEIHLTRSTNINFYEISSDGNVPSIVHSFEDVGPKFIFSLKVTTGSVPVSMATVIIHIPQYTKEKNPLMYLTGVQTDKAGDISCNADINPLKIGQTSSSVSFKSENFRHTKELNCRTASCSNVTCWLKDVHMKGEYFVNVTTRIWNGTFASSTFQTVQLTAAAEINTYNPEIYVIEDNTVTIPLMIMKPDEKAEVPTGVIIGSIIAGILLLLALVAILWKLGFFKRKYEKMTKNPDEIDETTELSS

NCCCC[C@@H](NC(=O)[C@H](Cc1c[nH]cn1)NC(=O)[C@H](CO)NC(=O)[C@H](Cc1c[nH]c2ccccc12)NC(=O)[C@H](Cc1c[nH]cn1)NC(=O)[C@@H]1CCC(=O)N1)C(=O)N[C@@H](Cc1c[nH]c2ccccc12)C(=O)N[C@@H](Cc1ccc(O)cc1)C(=O)N1CCC[C@H]1C(=O)NCC(N)=O — IC50 (Gonadotropin-releasing hormone receptor (Rattus norvegicus, UniProt P30969); ligand displacement in cells, radioligand): 0.0008 µM
Cn1nnnc1-c1cccc(NC(=O)CCS)c1 — IC50 (Metallo-beta-lactamase type 2 (blaNDM-1, Klebsiella pneumoniae, UniProt C7C422); enzyme activity, inhibitor, fluorescence; with preincubation): 3.23 µM
CN[C@](C)(C[18F])C(=O)O — tracer uptake (MDA-MB-468 tumour model; host not given, pancreas; 15 min, tumour-bearing): 50 %ID/g
CNC(=O)C1OC(n2cnc3c(NCc4cccc(I)c4)ncnc32)C(O)C1O (stereo not shown) — IC50 (ATP-dependent translocase ABCB1 (ABCB1, Homo sapiens, UniProt P08183); transport, inhibitor): 50 µM
CC[C@H](C)[C@H](NC(=O)[C@H](CO)NC(=O)[C@H](Cc1ccc(O)cc1)NC(=O)[C@H](CC(=O)O)NC(=O)[C@H](CO)NC(=O)[C@@H](NC(=O)[C@H](Cc1ccccc1)NC(=O)[C@@H](NC(=O)CNC(=O)[C@@H]1CCCN1C(=O)[C@H](C)NC(=O)[C@@H](N)Cc1ccc(O)cc1)[C@@H](C)O)[C@@H](C)CC)C(=O)N[C@@H](C)C(=O)N[C@@H](CCSC)C(=O)N[C@@H](CC(=O)O)C(=O)N[C@@H](CCCCN)C(=O)N[C@H](C(=O)N[C@@H](CCCNC(=N)N)C(=O)N[C@@H](CCC(N)=O)C(=O)N[C@@H](CCC(N)=O)C(=O)N[C@@H](CC(=O)O)C(=O)N[C@@H](Cc1ccccc1)C(=O)N[C@H](C(=O)N[C@@H](CC(N)=O)C(=O)N[C@@H](Cc1c[nH]c2ccccc12)C(=O)N[C@@H](CC(C)C)C(=O)N[C@@H](CC(C)C)C(=O)N[C@@H](C)C(=O)N[C@@H](CCC(N)=O)C(=O)N[C@@H](CCCCN)C(=O)NCC(=O)N[C@@H](CCCCN)C(=O)N[C@@H](CCCCN)C(=O)N[C@@H](CC(N)=O)C(=O)N[C@@H](CC(=O)O)C(=O)N[C@@H](Cc1c[nH]c2ccccc12)C(=O)N[C@@H](CCCCN)C(=O)N[C@@H](Cc1c[nH]cn1)C(=O)N[C@@H](CC(N)=O)C(=O)N[C@@H](CC(C)C)C(=O)N[C@H](C(=O)N[C@@H](CCC(N)=O)C(=O)O)[C@@H](C)O)C(C)C)[C@@H](C)CC — IC50 (Gastric inhibitory polypeptide receptor (Rattus norvegicus, UniProt P43219); ligand displacement in cells, radioligand): 0.0126 µM
N=C(N)NCCC[C@@H]1NC(=O)[C@H](CCCCNC(=O)CC[C@H](NC(=O)CCOCCOCCOCCOCCNC(=O)CN2CCN(CC(=O)O)CCN(CC(=O)O)CCN(CC(=O)O)CC2)C(=O)NCCCC[C@@H]2NC(=O)[C@@H](Cc3ccccc3)NC(=O)[C@H](CC(=O)O)NC(=O)CNC(=O)[C@H](CCCNC(=N)N)NC2=O)NC(=O)[C@@H](Cc2ccccc2)NC(=O)[C@H](CC(=O)O)NC(=O)CNC1=O [indium-111 labelled] — tissue uptake (female athymic nude mice, intestine; intravenous, 3 µCi, 0.5 h, U-87 MG glioma xenograft): 4.58 ± 1.49 %ID/g
COc1ccc(C[C@@H]2NC(=O)[C@H](Cc3ccc(O)cc3)NC(=O)[C@H](CO)NC(=O)[C@H](CC(=O)O)NC(=O)[C@H](Cc3ccc(O)cc3)NC(=O)[C@H](Cc3c[nH]c4ccccc34)NC(=O)[C@@H](Cc3ccc(O)cc3)NC(=O)CSC[C@@H](C(N)=O)NC(=O)[C@H]([C@@H](C)O)NC(=O)[C@H](Cc3ccc(O)cc3)NC(=O)[C@H](CCC(N)=O)NC(=O)[C@H](C)NC(=O)[C@H]([C@@H](C)O)NC(=O)CNC(=O)[C@@H]3CCCN3C(=O)[C@H](Cc3ccc(O)cc3)NC2=O)cc1 — AC50 (2,3-bisphosphoglycerate-independent phosphoglycerate mutase (gpmI, Mycoplasma pneumoniae, UniProt P75167); biochemical): 22.4 µM
CC[C@H](C)[C@H](NC(=O)[C@H](CC(C)C)NC(=O)CNC(=O)[C@@H]1CCCN1C(=O)[C@H](CC(N)=O)NC(=O)[C@H](C)NC(=O)[C@@H]1CCCN1C(=O)[C@H](C)NC(=O)[C@H](C)NC(=O)[C@@H]1CCCN1C(=O)[C@H](C)NC(=O)[C@@H](N)Cc1c[nH]cn1)C(=O)N[C@H](C(=O)NCC(=O)N[C@@H](C)C(=O)N[C@@H](CC(C)C)C(=O)N[C@@H](C)C(=O)NCC(=O)N[C@@H](CO)C(=O)N[C@H](C(=O)O)[C@@H](C)O)[C@@H](C)CC — IC50 (HLA-DRA/HLA-DRB3; binding, competition binding; purified HLA-DR; 48 h, added: radiolabelled probe peptide 0.1-1 nM): > 5 µM
CN(C)C(=O)[C@@H](NC(=O)c1cnccc1-c1ccc(C(F)(F)F)cc1)c1cc(C(F)(F)F)cc(C(F)(F)F)c1 — IC50 (KLRK1 with MICA; ligand binding, inhibitor, TR-FRET; HEK293 expressing NKG2D and DAP10; added: MICA-Alexa647): 0.2 ± 0.03 µM
CN1C(=O)[C@H](CCC(=O)O)NC(=O)[C@H](Cc2ccc(O)cc2)NC(=O)[C@H](CCCNC(=N)N)NC(=O)[C@@H](Cc2ccc(O)cc2)NC(=O)CSC[C@@H](C(N)=O)NC(=O)[C@H](CCCCN)NC(=O)[C@@H]2CCCN2C(=O)[C@H](CS)NC(=O)[C@H](CCC(=O)O)NC(=O)[C@H](Cc2ccc(O)cc2)N(C)C(=O)[C@H](CCCCN)NC(=O)[C@H](Cc2ccc(O)cc2)NC(=O)[C@@H]1Cc1ccc(O)cc1 — AC50 (2,3-bisphosphoglycerate-independent phosphoglycerate mutase (Wuchereria bancrofti, UniProt B1P0R4); biochemical): 1.7 µM
C[C@H](CC(=O)C[C@@H](C)[C@H]1C[C@H](O)[C@@]2(C)C3=C(C(=O)C[C@]12C)[C@@]1(C)CCC(=O)C(C)(C)[C@@H]1C[C@@H]3O)C(=O)O — IC50 (Dipeptidyl peptidase 4 (DPP4, Homo sapiens, UniProt P27487); enzyme activity, inhibitor): 81.9 µM
NC[C@@H]1O[C@H](O[C@H]2[C@@H](O)[C@H](O[C@@H]3[C@@H](O)[C@H](N)C[C@H](N)[C@H]3O[C@H]3O[C@H](CN)[C@@H](O)[C@H](O)[C@H]3N)O[C@@H]2Cn2cc(CCCc3cn(C[C@H]4O[C@@H](O[C@@H]5[C@@H](O)[C@H](N)C[C@H](N)[C@H]5O[C@H]5O[C@H](CN)[C@@H](O)[C@H](O)[C@H]5N)[C@H](O)[C@@H]4O[C@H]4O[C@@H](CN)[C@@H](O)[C@H](O)[C@H]4N)nn3)nn2)[C@H](N)[C@@H](O)[C@@H]1O — IC50 (HIV-1 TAR RNA; ethidium displacement; pH 6.8): 0.052 µM
CC1(C)C=Cc2c(cc(O)c3c(=O)cc(-c4ccccc4)oc23)O1 — IC50 (Amyloid-beta precursor protein (APP, Homo sapiens, UniProt P05067)): 70.3 ± 2.8 µM
COC(=O)C1CN1S(=O)(=O)c1cccc(C)c1 (stereo not shown) — IC50 (Protein disulfide-isomerase A3 (PDIA3, Homo sapiens, UniProt P30101); enzyme activity, inhibitor, absorbance; pH 7.6): > 200 µM
N=C(N)NCCC[C@@H]1NC(=O)[C@H](CCCCNC(=O)CCOCCOCCOCCOCCNC(=O)CN2CCN(CC(=O)O)CCN(CC(=O)O)CCN(CC(=O)O)CC2)NC(=O)[C@@H](Cc2ccccc2)NC(=O)[C@H](CC(=O)O)NC(=O)CNC1=O [indium-111 labelled] — tissue uptake (female athymic nude mice, intestine; intravenous, 3 µCi, 72 h, U-87 MG glioma xenograft): 0.67 ± 0.32 %ID/g
CC[N+](CC)(CC)CC — IC50 (Potassium channel protein kcv (A250R, Paramecium bursaria Chlorella virus 1, UniProt Q84568, L70E)): 79000 ± 11000 µM
NC(=O)c1cccc(CCN(CC[C@H](N)C(=O)O)C[C@H]2O[C@@H](n3cnc4c(N)ncnc43)[C@H](O)[C@@H]2O)c1 — IC50 (RNA 5'-monophosphate methyltransferase (BCDIN3D, Homo sapiens, UniProt Q7Z5W3); enzyme activity, inhibitor, radiometric): 19 µM
CC(C)C[C@H](NC(=O)[C@H](C)NC(=O)[C@H](CO)NC(=O)[C@H](CC(=O)O)NC(=O)[C@H](CCC(=O)O)NC(=O)[C@@H]1CCCN1C(=O)[C@H](CC(=O)O)NC(=O)[C@H](CCC(=O)O)NC(=O)[C@@H]1CCCN1)C(=O)N[C@@H](CC(C)C)C(=O)N[C@@H](CCC(=O)O)C(=O)N[C@@H](CC(=O)O)C(=O)O — IC50 (HLA-DRA/HLA-DRB3; binding, competition binding; purified HLA-DR; 48 h, added: radiolabelled probe peptide 0.1-1 nM): > 5 µM
CC[C@@H]1C(=O)N(C)c2cnc(Nc3ccc(C(=O)NCCCC[C@H](NC(=O)[C@@H](NC(=O)[C@H](CO)NC(=O)[C@H](Cc4cncn4CCCCCCCCc4ccccc4)NC(=O)[C@H](CC(C)C)NC(=O)[C@@H]4CCCN4C(C)=O)[C@@H](C)CP(=O)(O)O)C(N)=O)cc3OC)nc2N1C1CCCC1 — IC50 (Serine/threonine-protein kinase PLK1 (PLK1, Homo sapiens, UniProt P53350); enzyme activity, inhibitor): 0.0032 ± 3.9e-05 µM
CC(=O)C(NC(=O)c1ccccc1-c1ccc(C(F)(F)F)cc1)c1cccc(C(F)(F)F)c1 (stereo not shown) — IC50 (KLRK1 with MICA; ligand binding, inhibitor, TR-FRET; HEK293 expressing NKG2D and DAP10; added: MICA-Alexa647): > 20 µM
C[C@@H](O)[C@H](NC(=O)[C@H](CCCCN)NC(=O)[C@H](Cc1c[nH]c2ccccc12)NC(=O)CN)C(=O)N[C@@H](CCCNC(=N)N)C(=O)NC(C)(C)C(=O)N[C@@H](CCCNC(=N)N)C(=O)NC(C)(C)C(=O)N[C@H](C(=O)N[C@@H](CO)C(=O)N[C@@H](Cc1c[nH]cn1)C(=O)N[C@@H](Cc1ccc(O)cc1)C(=O)NCC(=O)O)[C@@H](C)O — IC50 (Integrin alpha-2, with integrin beta-1 (Homo sapiens, UniProt P17301); K562 expressing integrin α2; 60 min, 37 °C): 0.0007 µM
COc1ccc2nc(C)cc(OCC(=O)Nc3ccccc3OC)c2c1 — IC50 (CYP2C19; inhibitor): 2 µM
O=C(O)CCc1c(C(=O)O)[nH]c2ccccc12 — IC50 (Metallo-beta-lactamase type 2; inhibitor; 10 min preincubation, added: FC5 fluorogenic substrate): 3.9 µM
COc1cc(C(=O)NCCOCCOCCOCCNC(=O)c2ccc([18F])nc2)ccc1NC(=O)C1NC(CC(C)(C)C)C(C#N)(c2ccc(Cl)cc2F)C1c1cccc(Cl)c1F (stereo not shown) — tracer uptake (HepG2 tumour model; host not given, lung; 30 min, tumour-bearing): 3.59 %ID/g
CCCCCc1cc(O)c2c(c1)OC(C)(C)C1CCC(C)=CC21 (single isomer, unassigned; (-)) — IC50 (CYP2C19; inhibitor; HEK cell microsomes; 30 min preincubation with NADPH): 2.5 ± 1.8 µM
N#Cc1cn([C@@H]2O[C@H](CSCC[C@H](N)C(=O)O)[C@@H](O)[C@H]2O)c2ncnc(N)c12 — IC50 (Protein arginine N-methyltransferase 1 (PRMT1, Homo sapiens, UniProt Q99873); enzyme activity, inhibitor, radiometric): 3 µM
CC(C)C(=O)Nc1ccccc1-c1nn[nH]n1 — IC50 (Metallo-beta-lactamase type 2; inhibitor; 10 min preincubation, added: FC5 substrate): > 100 µM
CC12CC(c3ccoc3)OC(=O)C1CCC1(C)C2C2OC(=O)C1(O)C1OC21 (stereo not shown) — IC50 (Acetylcholinesterase (Ache, Rattus norvegicus, UniProt P37136); enzyme activity, inhibitor, Ellman): 35.9 µM

For quick reference, copied from above:
CC[C@@H]1C(=O)N(C)c2cnc(Nc3ccc(C(=O)NCCCC[C@H](NC(=O)[C@@H](NC(=O)[C@H](CO)NC(=O)[C@H](Cc4cncn4CCCCCCCCc4ccccc4)NC(=O)[C@H](CC(C)C)NC(=O)[C@@H]4CCCN4C(C)=O)[C@@H](C)CP(=O)(O)O)C(N)=O)cc3OC)nc2N1C1CCCC1 — IC50 (Serine/threonine-protein kinase PLK1 (PLK1, Homo sapiens, UniProt P53350); enzyme activity, inhibitor): 0.0032 ± 3.9e-05 µM
CC(=O)C(NC(=O)c1ccccc1-c1ccc(C(F)(F)F)cc1)c1cccc(C(F)(F)F)c1 (stereo not shown) — IC50 (KLRK1 with MICA; ligand binding, inhibitor, TR-FRET; HEK293 expressing NKG2D and DAP10; added: MICA-Alexa647): > 20 µM
C[C@@H](O)[C@H](NC(=O)[C@H](CCCCN)NC(=O)[C@H](Cc1c[nH]c2ccccc12)NC(=O)CN)C(=O)N[C@@H](CCCNC(=N)N)C(=O)NC(C)(C)C(=O)N[C@@H](CCCNC(=N)N)C(=O)NC(C)(C)C(=O)N[C@H](C(=O)N[C@@H](CO)C(=O)N[C@@H](Cc1c[nH]cn1)C(=O)N[C@@H](Cc1ccc(O)cc1)C(=O)NCC(=O)O)[C@@H](C)O — IC50 (Integrin alpha-2, with integrin beta-1 (Homo sapiens, UniProt P17301); K562 expressing integrin α2; 60 min, 37 °C): 0.0007 µM
COc1ccc2nc(C)cc(OCC(=O)Nc3ccccc3OC)c2c1 — IC50 (CYP2C19; inhibitor): 2 µM
